Measured values from different studies.
Protocols differ between the studies behind these lines.
Target: Serine/threonine-protein kinase PLK2 (PLK2, Homo sapiens, UniProt Q9NYY3)

With `CNC1C[S+]2CC[S+]3CC[S+](C1)[Ru-4]321([N]=C=S)[n]2c3ccc(OC)cc3c3c4c(c5cc(F)c[n+]1c5c32)C(=O)NC4=O` (stereo not drawn) the remaining binding was 67% (KinomeScan; 0.1 µM; relative to: untreated).
Under “activity vs control”, `O=C(Cc1ccc(OCc2ccccc2)cc1)NC1(C(=O)O)CCN(C(=O)c2ccc(-c3cccc(Cl)c3)cc2)CC1` is recorded as 99% (enzyme activity, inhibitor; 10 µM).
`CCN1CCN(Cc2ccc(C(=O)Nc3ccc(C)c(NCc4cnc5[nH]ccc5c4OC)c3)cc2C(F)(F)F)CC1` gave a remaining binding of 100% (binding, competition with immobilised ligand; 1 µM).
The inhibition of `NC(=O)C[C@H]1CCc2sc3ncnc(O[C@H]4CC[C@H](N5CCOCC5)CC4)c3c21` is reported as 3% (enzyme activity, inhibitor; 10 µM).
The remaining binding of `COc1c(Cl)cccc1Nc1c(-c2ccncc2C#C[C@@]2(C)CCCN2C(=O)/C=C/CN(C)C)[nH]c2c1C(=O)NCC2` is reported as 97% (binding, competition with immobilised ligand; 3 µM).
Under “activity vs control”, `CNC(=O)C[C@H](Cc1ccc(C#N)cc1)NC(=O)c1cc(-c2ccc(CN[C@H](C)c3ccc(C)cc3)o2)ccc1Cl` is recorded as 105% (enzyme activity, inhibitor; 1 µM).
With `CCn1cc(C(=O)O)c(=O)c2c(N)c(F)c(NC3CCCCC3)cc21` the inhibition was -11.2% (kinase activity; 0.1 µM, with: ATP at Km).
The remaining activity of `COc1cc(Nc2nc(C)cc(-c3cnn4nc(OC)ccc34)n2)cc(C(F)(F)F)c1` is reported as 77% (inhibitor; 1 µM; relative to: control).
With `CN1CC[C@@H](COc2cnc(C#N)cc2-c2ccn3nc(NC(=O)C4CC4)cc3c2)C1` the inhibition was 2% (enzyme activity, inhibitor; 1 µM).
The remaining binding of `C=CC(=O)N1CCc2ccc(-n3c(=O)ccc4cnc5ccc(-c6cnn(C)c6)cc5c43)cc21` is reported as 83% (KINOMEscan; 1 µM; relative to: DMSO control).
With `Cc1nc2c(F)cc(-c3nc(Nc4ccc(CNC(=O)CCCCCCC(=O)NO)cc4)ncc3F)cc2n1C(C)C` the inhibition was 51% (enzyme activity, inhibitor; 1 µM).
`CNC(=O)C1CCN(c2cc(C)c(F)cc2NC(=O)c2ccc(-c3cc(O)ccc3C)c(C)c2)CC1` gave a remaining binding of 81% (binding, competition with immobilised ligand; 1 µM).
With `C=CC(=O)Nc1cc(-c2nn(C3CCN(CCNC(=O)[C@H](C)CCC45CC6CC(CC(C6)C4)C5)CC3)c3ncnc(N)c23)ccc1Oc1ccccc1` the inhibition was 21.1% (inhibitor, KiNativ profiling; biochemical; 2 µM).
The remaining signal of `Cc1cnc2nc1Nc1cccc(c1)COC/C=C/COCc1cc(ccc1OCCN1CCOCC1)N2` is reported as 90% (cell-free assay; 0.1 µM).
`COc1ccc(NC(=O)Nc2ccc3c(c2)C(=O)N(C(C)CO)CC(C)C(CN(C)Cc2ccc4c(c2)OCO4)O3)cc1` (stereo not drawn) gave a remaining activity of 92% (kinase activity, KinaseProfiler; 0.03 µM, species human; relative to: control).

For quick reference, copied from above:
With `Cc1nc2c(F)cc(-c3nc(Nc4ccc(CNC(=O)CCCCCCC(=O)NO)cc4)ncc3F)cc2n1C(C)C` the inhibition was 51% (enzyme activity, inhibitor; 1 µM).
